Experimental data gathered from unrelated publications.
Lines come from different studies, so protocols differ. Several values in a cell are separate wells, animals, samples, runs or records. Numbers after ± are the reported error.
Chain of UniProt P35462 (whole entry, looked up): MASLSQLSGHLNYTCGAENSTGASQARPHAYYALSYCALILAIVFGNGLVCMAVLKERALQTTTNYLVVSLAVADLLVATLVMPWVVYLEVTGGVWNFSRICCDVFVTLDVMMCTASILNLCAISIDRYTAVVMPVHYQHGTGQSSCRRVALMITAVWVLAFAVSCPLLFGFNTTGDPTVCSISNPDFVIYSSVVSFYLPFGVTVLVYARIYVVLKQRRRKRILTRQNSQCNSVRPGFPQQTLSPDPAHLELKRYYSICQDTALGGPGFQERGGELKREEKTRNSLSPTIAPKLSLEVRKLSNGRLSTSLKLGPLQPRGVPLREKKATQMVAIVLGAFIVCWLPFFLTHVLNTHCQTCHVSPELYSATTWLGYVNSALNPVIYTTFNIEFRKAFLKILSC

Under “serum LDH activity”, O=C1NC2(CC2)COc2ncc(F)cc2[C@H]2COCCN2c2ccn3ncc1c3n2 is recorded as 951 ± 156 U/L (Sprague-Dawley rat, male, serum; oral, 5 mg/kg/day, end of recovery, 4-week subacute toxicity).
CC(C)[C@@H]1NC(=O)CNC(=O)[C@H](CC(N)=O)NC(=O)[C@H](CCCNC(=N)N)NC(=O)[C@H](Cc2ccc(O)cc2)NC(=O)[C@H](C(C)C)NC(=O)[C@@H](NC(=O)[C@@H](NC(=O)[C@H](CC(N)=O)NC(=O)[C@H](Cc2c[nH]c3ccccc23)NC(=O)[C@H](C)NC(=O)[C@H](Cc2ccccc2)NC(=O)CNC(=O)[C@H](CCCCN)NC(=O)[C@H](Cc2ccccc2)NC(=O)[C@H](Cc2ccccc2)NC(=O)[C@H](CCCCN)NC(=O)OCC2c3ccccc3-c3ccccc32)C(C)C)CSSC[C@@H](C(=O)N[C@@H](Cc2c[nH]cn2)C(=O)N[C@@H](CCCNC(=N)N)C(=O)N[C@@H](CCCNC(=N)N)C(=O)N[C@@H](C)C(=O)N[C@@H](CC(N)=O)C(N)=O)NC(=O)[C@H](C(C)C)NC(=O)[C@H](CCCNC(=N)N)NC1=O has a haematocrit of 40.1 ± 1.25% (ICR mouse, blood; intramammary, 10 mg/kg, day 5, 3 d dosing).
Cn1nc(NS(C)(=O)=O)c2c(Cl)ccc(-n3c([C@H](Cc4cc(F)cc(F)c4)NC(=O)Cn4nc(C(F)F)c5c4C(F)(F)[C@@H]4C[C@H]54)nc4nc(OCCC(F)(F)F)ccc4c3=O)c21 has a Cmax of 107 ng/mL (human, plasma; oral, 125 mg single dose, powder in bottle, geometric mean).
For CC(=O)N[C@H](C(=O)N[C@@H](CCCC(=O)OC(C)(C)C)C(=O)N[C@@H](CCC1CCCCC1)C(=O)N[C@@H](CC(=O)O)C(=O)COC(=O)c1c(C)cccc1C)C(C)(C)C, the AST was 630 U/L and 440 U/L and 432 U/L and 568 U/L and 346 U/L and 482 U/L (C57BL/6N mouse, serum; concentration not given, together with: LPS).
For C/C(=N\OCCCN1CCCCC1)c1ccc(C(F)(F)F)cc1, the AUC(0-t) was 6570 ± 3200 ng·h/mL (mouse, plasma; oral, 100 mg/kg twice daily, day 7).
Under “glucuronide to parent ratio”, CC(CCC(=O)NCC(=O)O)C1CCC2C3CCC4CC(OC5OC(C(=O)O)C(O)C(O)C5O)CCC4(C)C3CC(O)C12C (centres unmarked) is recorded as 0.7 (women, T/C genotype, plasma; dose not given, geometric mean).
With C[C@H](NCc1ccc(-c2ccc(C(F)(F)F)cc2)cc1)C(N)=O the concentration was 730 ng/mL (rat, plasma; oral, 10 mg/kg, 2 h).
CC(C)[C@H](NC(=O)[C@@H](NC(=O)[C@H](CCCNC(=N)N)NC(=O)[C@H](CCCNC(=N)N)NC(=O)[C@H](CCCNC(=N)N)NC(=O)[C@H](CCC(N)=O)NC(=O)[C@H](CCCNC(=N)N)NC(=O)[C@H](CCCNC(=N)N)NC(=O)[C@H](CCCCN)NC(=O)[C@H](CCCCN)NC(=O)[C@H](CCCNC(=N)N)NC(=O)CN)[C@@H](C)O)C(=O)N[C@H](C(=O)N[C@@H](CO)C(=O)N1CCC[C@H]1C(=O)O)[C@@H](C)O gave an organ weight of 0.098 ± 0.02 g (ICR mice, female, spleen; intranasal, 10 mg/kg daily, 4 weeks).
CSCC[C@H](N)C(=O)N[C@@H](C)C(=O)N[C@@H](CCCNC(=N)N)C(=O)N[C@@H](CCCNC(=N)N)C(=O)N[C@@H](CC(=O)O)C(=O)N[C@@H](CCCCN)C(=O)N[C@H](C(=O)N[C@@H](CC(=O)O)C(=O)N[C@@H](Cc1ccccc1)C(=O)N[C@@H](C)C(=O)N[C@@H](CCCNC(=N)N)C(=O)N[C@@H](CCCNC(=N)N)C(=O)N[C@@H](CCCNC(=N)N)C(=O)N[C@@H](CCCNC(=N)N)C(=O)NCCCCCC(=O)NCCCCC(NC(=O)CCCCCNC(=O)[C@H](CCCNC(=N)N)NC(=O)[C@H](CCCNC(=N)N)NC(=O)[C@H](CCCNC(=N)N)NC(=O)[C@H](CCCNC(=N)N)NC(=O)[C@H](C)NC(=O)[C@H](Cc1ccccc1)NC(=O)[C@H](CC(=O)O)NC(=O)[C@@H](NC(=O)[C@H](CCCCN)NC(=O)[C@H](CC(=O)O)NC(=O)[C@H](CCCNC(=N)N)NC(=O)[C@H](CCCNC(=N)N)NC(=O)[C@H](C)NC(=O)[C@@H](N)CCSC)[C@@H](C)O)C(=O)NCCCCC(NC(=O)C(CCCCNC(=O)CCCCCNC(=O)[C@H](CCCNC(=N)N)NC(=O)[C@H](CCCNC(=N)N)NC(=O)[C@H](CCCNC(=N)N)NC(=O)[C@H](CCCNC(=N)N)NC(=O)[C@H](C)NC(=O)[C@H](Cc1ccccc1)NC(=O)[C@H](CC(=O)O)NC(=O)[C@@H](NC(=O)[C@H](CCCCN)NC(=O)[C@H](CC(=O)O)NC(=O)[C@H](CCCNC(=N)N)NC(=O)[C@H](CCCNC(=N)N)NC(=O)[C@H](C)NC(=O)[C@@H](N)CCSC)[C@@H](C)O)NC(=O)CCCCCNC(=O)[C@H](CCCNC(=N)N)NC(=O)[C@H](CCCNC(=N)N)NC(=O)[C@H](CCCNC(=N)N)NC(=O)[C@H](CCCNC(=N)N)NC(=O)[C@H](C)NC(=O)[C@H](Cc1ccccc1)NC(=O)[C@H](CC(=O)O)NC(=O)[C@@H](NC(=O)[C@H](CCCCN)NC(=O)[C@H](CC(=O)O)NC(=O)[C@H](CCCNC(=N)N)NC(=O)[C@H](CCCNC(=N)N)NC(=O)[C@H](C)NC(=O)[C@@H](N)CCSC)[C@@H](C)O)C(N)=O)[C@@H](C)O (some centres unmarked) — result for “mean tissue distribution”: 5.49% (C57BL/6 mouse female, liver; dose not given, 6 h; relative to: total).
With CCCCC[C@@H]1NC(=O)[C@@H](C)N(C)C(=O)[C@H](CCCCC)N(C)C(=O)[C@@H](C)N(C)C(=O)[C@H](CCCCC)NC(=O)[C@@H](C)N(C)C(=O)[C@H](CCCCC)N(C)C(=O)[C@@H](C)N(C)C1=O the log Papp was -5.41 (PAMPA; 500 µM, pH 7.4, UV/ELSD/MS detection).
CC(C)[C@H](NC(=O)[C@H](Cc1c[nH]c2ccccc12)NC(=O)[C@H](CCCNC(=N)N)NC(=O)[C@H](CCCNC(=N)N)NC(=O)[C@@H](NC(=O)[C@@H](NC(=O)[C@H](CCCNC(=N)N)NC(=O)[C@@H](NC(=O)[C@@H](NC(=O)[C@H](CCCNC(=N)N)NC(=O)[C@H](CCCNC(=N)N)NC(=O)[C@@H](NC(=O)[C@H](Cc1c[nH]c2ccccc12)NC(=O)[C@H](CCCNC(=N)N)NC(=O)[C@H](CCCNC(=N)N)NC(=O)[C@@H](NC(=O)[C@H](CCCNC(=N)N)NC(=O)[C@H](CCCNC(=N)N)NC(=O)[C@@H](NC(=O)[C@H](Cc1c[nH]c2ccccc12)NC(=O)[C@H](CCCNC(=N)N)NC(=O)[C@@H](N)CCCNC(=N)N)C(C)C)C(C)C)C(C)C)C(C)C)C(C)C)C(C)C)C(C)C)C(=O)N[C@@H](CCCNC(=N)N)C(=O)N[C@@H](CCCNC(=N)N)C(=O)O: “dose in liver” 7.2 ± 5.2% (CD-1 mice; relative to: dose).
For CCCCCCCCCCCCCCCC(=O)N[C@@H](CCC(=O)NCCOCCOCCC(=O)NCCOCCOCCC(=O)NCCCC[C@H](NC(=O)[C@H](CC(=O)O)NC(=O)[C@H](CC(C)C)NC(=O)[C@H](Cc1ccc(O)cc1)NC(=O)[C@H](CCCCN)NC(=O)[C@H](CO)NC(=O)[C@H](Cc1ccc(O)cc1)NC(=O)[C@H](CC(=O)O)NC(=O)[C@H](CO)NC(=O)[C@@H](NC(=O)[C@H](Cc1ccccc1)NC(=O)[C@@H](NC(=O)CNC(=O)[C@H](CCC(N)=O)NC(=O)[C@@H](CO)NC(=O)[C@@H](N)Cc1c[nH]cn1)[C@@H](C)O)[C@@H](C)O)C(=O)N[C@@H](CCCNC(=N)N)C(=O)N[C@@H](CCCNC(=N)N)C(=O)N[C@@H](C)C(=O)N[C@@H](CCC(N)=O)C(=O)N[C@@H](CC(=O)O)C(=O)N[C@@H](Cc1ccccc1)C(=O)N[C@H](C(=O)N[C@@H](CCC(N)=O)C(=O)N[C@@H](Cc1c[nH]c2ccccc12)C(=O)N[C@@H](CC(C)C)C(=O)N[C@@H](CC(C)C)C(=O)N[C@@H](CC(N)=O)C(=O)N[C@H](C(=O)NCC(=O)NCC(=O)N1CCC[C@H]1C(=O)N[C@@H](CO)C(=O)N[C@@H](CO)C(=O)NCC(=O)N[C@@H](C)C(=O)N1CCC[C@H]1C(=O)N1CCC[C@H]1C(=O)N1CCC[C@H]1C(=O)N[C@@H](CO)C(N)=O)[C@@H](C)O)C(C)C)C(=O)O, the Tmax was 2 h (rhesus monkey, male, plasma; subcutaneous, 60 µg/kg, day 1, toxicokinetics, median).
For N#[11C]c1ccc(-c2csc(NN=C3CCCC3)n2)cc1, “uptake in adrenal gland” read 6.57 ± 1.35 %ID/g (C57BL/6 mouse, male; intravenous, 3 MBq, 15 min).
Under “plasma Na+ level”, C=C/C=C/C[C@@H](C)[C@@H](O)[C@H]1C(=O)N[C@@H](CC)C(=O)N(C)CC(=O)N(C)[C@@H](CC(C)C)C(=O)N[C@@H](C(C)C)C(=O)N(C)[C@@H](CC(C)C)C(=O)N[C@@H](C)C(=O)N[C@H](C)C(=O)N(C)[C@@H](CC(C)C)C(=O)N(C)[C@@H](CC(C)C)C(=O)N(C)[C@@H](C(C)C)C(=O)N1C is recorded as 143 ± 1 mmol/L (Wistar Kyoto rat, male, plasma; ip, 0.5 mg/kg/day, day 28, at sacrifice).
C#Cc1c(F)ccc2cc(O)cc(-c3ncc4c(N5CC6CCC(C5)N6C(=O)OC(OC(=O)CCC)C(C)C)nc(OC[C@@]56CCCN5C[C@H](F)C6)nc4c3F)c12 (some centres unmarked) has a t1/2 of 4.41 min (item: prodrug; mouse whole blood; 1 µM).
CCn1ccc(-c2cc(-c3cnn(C)c3)cc([C@@H](C)NC(=O)c3cc(OCCN(C)C)ccc3C)c2)n1 has an MRT(0-inf) of 4.1 h (C57BL/6J mice, male, plasma; oral, 50 mg/kg).
CN1Cc2cc(Cl)ccc2-n2c(nnc2C2CCN(c3cccc([18F])n3)CC2)C1 gave a tissue uptake of 3.01 ± 0.5 %ID/g (C57BL/6 mouse male, blood; intravenous, 3.7 MBq, 30 min).
CCN(CC)C(=O)[C@@H]1C=C2c3cccc4c3c(cn4C(=O)c3ccco3)C[C@H]2N(C)C1 has a Ki of 1430 nM (DRD3 (Homo sapiens, UniProt P35462); ligand displacement, radioligand).
CC[C@H](C)[C@H](NC(=O)[C@H](CCC(N)=O)NC(=O)[C@H](Cc1c[nH]cn1)NC(=O)[C@@H](NC(=O)[C@H](Cc1c[nH]c2ccccc12)NC(=O)[C@H](CO)NC(=O)[C@H](CCC(N)=O)NC(=O)[C@@H]1CCCN1C(=O)[C@H](Cc1c[nH]cn1)NC(=O)[C@@H](NC(=O)[C@H](CCCNC(=N)N)NC(=O)[C@H](CC(C)C)NC(=O)[C@H](Cc1ccc(O)cc1)NC(=O)[C@H](CCCNC(=N)N)NC(=O)[C@@H](NC(=O)[C@H]1CC[C@H](CN)CC1)[C@@H](C)O)[C@@H](C)CC)C(C)C)C(=O)O gave a viability of 5 to 10% (rat cortical neurons; MTT; 1.0 mg/ml, 24 h, 37 °C).
The SUVmean of CC[C@H](C)[C@H](NC(=O)[C@H](CCCCN)NC(=O)CNC(=O)[C@H](CC(C)C)NC(=O)[C@H](Cc1ccccc1)NC(=O)[C@H](CCCCN)NC(=O)[C@H](CO)NC(=O)[C@H](Cc1ccccc1)NC(=O)[C@H](Cc1c[nH]c2ccccc12)NC(=O)[C@H](CCC(N)=O)NC(=O)[C@@H](NC(=O)[C@H](Cc1ccccc1)NC(=O)CCCCCNC(=O)CN1CCN(CC(=O)O)CCN(CC(=O)O)CCN(CC(=O)O)CC1)C(C)C)C(=O)N[C@@H](CCC(=O)O)C(=O)N1CCC[C@H]1C(=O)N[C@@H](CC(=O)O)C(=O)N[C@H](C(=O)N[C@@H](CO)C(=O)N[C@@H](CCC(N)=O)C(=O)N[C@H](C(=O)N[C@@H](CCC(N)=O)C(=O)N[C@@H](CC(=O)O)C(=O)N1CCC[C@H]1C(=O)N[C@@H](CC(N)=O)C(=O)N[C@@H](CC(=O)O)C(=O)N[C@@H](CCC(N)=O)C(=O)N[C@@H](Cc1ccc(O)cc1)C(=O)N[C@@H](CCC(=O)O)C(=O)N1CCC[C@H]1C(=O)N[C@@H](Cc1ccccc1)C(=O)O)C(C)C)C(C)C [copper-64 labelled] is reported as 1.46 SUV (dynamic PET; mouse, CT26 tumour, untreated, tumour; intravenous, 100 µCi/mouse, 3100 s).

Repeated from above:
With C[C@H](NCc1ccc(-c2ccc(C(F)(F)F)cc2)cc1)C(N)=O the concentration was 730 ng/mL (rat, plasma; oral, 10 mg/kg, 2 h).
